Results from different studies.
Each numbered part is a random draw from the data of one study; scales do not carry over between parts.

Block 1
Target: Interferon regulatory factor 7, full length, phosphomimetic (IRF7, Homo sapiens, UniProt Q92985, residues 1-503, S101K/S471D/S472D/S475D/S476D/S477D/S483D/S484D/S487D)
UniProt Q92985, sequence (whole entry, unmodified, looked up): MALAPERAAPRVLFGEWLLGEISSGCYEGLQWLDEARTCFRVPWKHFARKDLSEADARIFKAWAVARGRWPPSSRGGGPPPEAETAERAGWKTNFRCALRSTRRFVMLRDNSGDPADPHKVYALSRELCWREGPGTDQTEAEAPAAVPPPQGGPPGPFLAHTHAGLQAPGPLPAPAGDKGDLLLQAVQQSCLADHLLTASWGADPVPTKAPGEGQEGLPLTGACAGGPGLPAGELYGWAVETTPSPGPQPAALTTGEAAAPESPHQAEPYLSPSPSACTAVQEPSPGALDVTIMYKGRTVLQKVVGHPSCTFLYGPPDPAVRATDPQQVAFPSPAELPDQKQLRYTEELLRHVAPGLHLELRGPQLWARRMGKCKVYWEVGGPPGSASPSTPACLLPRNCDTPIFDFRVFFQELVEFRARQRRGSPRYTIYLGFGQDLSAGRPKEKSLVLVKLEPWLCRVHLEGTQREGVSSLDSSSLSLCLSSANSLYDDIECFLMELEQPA
Method: protein-binding microarray
Molecule type: double-stranded DNA, one strand shown
Sample: in vitro
Concentration: 250 nM
Setting: 60-bp whole probe
Together with: salmon DNA 0.4 mg/ml
Reference: random background probes
Direction: higher = stronger binding
`GCCTAGCACTCAATTCTCTTTTCACTACTGTGCTAGGTCTTGATTCGCTTGACGCTGCTG` gave a log fluorescence of 1.63 z-score.
`GCCTAGCACCTTGGCTTCTCCCACAGGTGGTGCTAGGTCTTGATTCGCTTGACGCTGCTG` has a log fluorescence of -0.751 z-score.
`GCCTAGCACTTAGGTATCGGTCTCTGTTAGTGCTAGGTCTTGATTCGCTTGACGCTGCTG` gave a log fluorescence of 1.87 z-score.

Block 2
Target: Sal-like protein 4, full length isoform A (SALL4, Homo sapiens, UniProt Q9UJQ4, residues 1-1053)
UniProt Q9UJQ4, sequence (whole entry, looked up): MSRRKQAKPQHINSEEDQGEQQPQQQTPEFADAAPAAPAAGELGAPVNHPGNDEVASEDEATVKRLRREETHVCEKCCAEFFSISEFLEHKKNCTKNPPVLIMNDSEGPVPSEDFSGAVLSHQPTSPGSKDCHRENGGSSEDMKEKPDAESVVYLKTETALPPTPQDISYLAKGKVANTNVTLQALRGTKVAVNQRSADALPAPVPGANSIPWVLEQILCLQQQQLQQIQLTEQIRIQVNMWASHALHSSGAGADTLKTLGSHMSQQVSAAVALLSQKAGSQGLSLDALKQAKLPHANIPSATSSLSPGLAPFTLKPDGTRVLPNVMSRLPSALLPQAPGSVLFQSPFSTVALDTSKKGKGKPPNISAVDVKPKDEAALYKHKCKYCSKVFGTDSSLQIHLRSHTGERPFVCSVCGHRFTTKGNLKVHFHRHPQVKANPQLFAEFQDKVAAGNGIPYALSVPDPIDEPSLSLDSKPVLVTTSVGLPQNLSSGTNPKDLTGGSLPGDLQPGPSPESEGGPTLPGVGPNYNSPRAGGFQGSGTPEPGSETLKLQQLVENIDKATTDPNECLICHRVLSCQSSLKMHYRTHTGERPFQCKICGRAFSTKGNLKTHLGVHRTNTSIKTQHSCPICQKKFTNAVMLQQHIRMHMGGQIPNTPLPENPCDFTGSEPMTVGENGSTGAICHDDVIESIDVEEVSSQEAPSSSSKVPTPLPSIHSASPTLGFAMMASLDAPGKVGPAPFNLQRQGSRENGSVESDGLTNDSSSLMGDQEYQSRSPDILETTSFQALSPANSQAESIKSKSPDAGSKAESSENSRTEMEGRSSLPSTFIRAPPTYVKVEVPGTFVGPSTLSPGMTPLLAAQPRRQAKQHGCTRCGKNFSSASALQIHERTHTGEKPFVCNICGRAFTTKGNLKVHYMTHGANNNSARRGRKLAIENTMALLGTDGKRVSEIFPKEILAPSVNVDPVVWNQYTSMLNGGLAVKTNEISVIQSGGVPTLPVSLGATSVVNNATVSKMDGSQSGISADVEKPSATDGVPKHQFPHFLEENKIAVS
Method: universal PBM
Molecule type: double-stranded DNA, one strand shown
Sample: in vitro
Concentration: 600 nM
Setting: 8-mer, flanks averaged, mean of replicates
Direction: higher = stronger binding
`CAGAAACG` gave an E-score of -0.0478.
`TCCAGGCA` gave an E-score of 0.0435.
`GCACACGA` gave an E-score of -0.0637.
`ATTCCCAG` gave an E-score of -0.0508.

Block 3
Target: Histone acetyltransferase KAT6A, both winged helices, GST fusion (KAT6A, Homo sapiens, UniProt Q92794, residues 1-181)
Method: protein binding microarray
Molecule type: double-stranded DNA, one strand shown
Sample: in vitro
Concentration: not given
Setting: 8-mer, flanks averaged, mean of 2 arrays, mostly near background
Reference: not given
Direction: higher = stronger binding
Construct (chain): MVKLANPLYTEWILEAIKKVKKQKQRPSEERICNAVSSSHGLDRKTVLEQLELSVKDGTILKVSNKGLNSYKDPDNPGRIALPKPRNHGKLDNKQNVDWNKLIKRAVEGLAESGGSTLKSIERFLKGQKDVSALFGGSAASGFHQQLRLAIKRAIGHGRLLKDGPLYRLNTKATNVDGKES
`CCTAGCCG` has an E-score of 0.133.
With `CGGATTCA` the E-score was 0.0541.
The E-score of `GGATTGGA` is reported as -0.173.
For `GCCAATGA`, the E-score was -0.163.

Further values, each from its own experiment
For `PhoQ, residues 284 288 289 292 302 303 SIHMAM`, the fold induction was 16.8 (PhoP, residues 12 14 15 18 19 GQALL (Escherichia coli, UniProt P23836); Sort-seq, refers to: YFP reporter; E. coli; PhoQ-PhoP variant library, together with: 10 µM Mg2+; reference: high Mg2+ state, higher = stronger signaling).

Some of these lines once more (block 2):
`ATTCCCAG` gave an E-score of -0.0508.
